Published values gathered from unrelated publications.
Parts stem from different laboratories: compare values within a part only. Positions count from the first letter of the parent shown.

Block 1
Target: ABI1, truncated, D143A, DHFR fusion (Arabidopsis thaliana)
Method: DHFR PCA, deep sequencing
Sample: yeast
Notes: methotrexate growth selection, single substitutions
Together with: (+)-ABA 1.4 µM
Baseline: wild-type fitted maximum
Reading: higher = stronger binding
Parent: PYL1, truncated, DHFR fusion (Arabidopsis thaliana); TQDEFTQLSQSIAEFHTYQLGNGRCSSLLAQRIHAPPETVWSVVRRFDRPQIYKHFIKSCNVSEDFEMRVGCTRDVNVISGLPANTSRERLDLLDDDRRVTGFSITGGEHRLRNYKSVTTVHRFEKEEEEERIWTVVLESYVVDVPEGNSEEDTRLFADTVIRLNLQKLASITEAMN; partner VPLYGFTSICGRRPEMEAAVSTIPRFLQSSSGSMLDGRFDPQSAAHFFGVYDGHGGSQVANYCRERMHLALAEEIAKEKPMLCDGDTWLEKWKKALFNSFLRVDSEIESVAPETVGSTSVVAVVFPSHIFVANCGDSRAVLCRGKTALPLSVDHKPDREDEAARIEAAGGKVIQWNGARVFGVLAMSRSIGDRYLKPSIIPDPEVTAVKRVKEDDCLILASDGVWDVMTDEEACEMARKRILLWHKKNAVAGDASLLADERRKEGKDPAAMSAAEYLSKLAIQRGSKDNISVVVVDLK
Variant | relative binding score [%]
T173Y | -14.2
P146G | 4.19
V143N | -17.5
S104Q | -12.7

Block 2
Target: Interferon regulatory factor 5, full length, phosphomimetic (IRF5, Homo sapiens, UniProt Q13568-2, residues 1-514, S451D/S453D/S456D/S462D)
Method: protein-binding microarray
Molecule type: double-stranded DNA, one strand shown
Sample: in vitro
Tested at: 940 nM top
Notes: 60-bp whole probe
Together with: salmon DNA 0.4 mg/ml
Baseline: random background probes
Reading: higher = stronger binding
Strand | fitted relative affinity [z-score]
GCCTAGCACGACGGACTGTGGTTTCGGGACGTGCTAGTCTTGATTCGCTTGACGCTGCTG | 2.68
GCCTAGCACGACGGTCTCTGTTTCGGGACGTGCTAGGTCTTGATTCGCTTGACGCTGCTG | 2.71
GCCTAGCACTAGCTTCCATTTTCTGAACGTGTGCTAGTCTTGATTCGCTTGACGCTGCTG | 0.461
GCCTAGCACTCATCTATCAAAAATACAACTGTGCTAGTCTTGATTCGCTTGACGCTGCTG | 0.565

Block 3
Target: CCNE1, cyclin fold, Cln2 fusion (human)
Method: yeast growth competition, sequencing
Sample: yeast
Notes: strong parent motif
Baseline: not given
Reading: higher = stronger binding
Parent: E2F2 docking peptide (human); LPAKRKLDLEGIG; partner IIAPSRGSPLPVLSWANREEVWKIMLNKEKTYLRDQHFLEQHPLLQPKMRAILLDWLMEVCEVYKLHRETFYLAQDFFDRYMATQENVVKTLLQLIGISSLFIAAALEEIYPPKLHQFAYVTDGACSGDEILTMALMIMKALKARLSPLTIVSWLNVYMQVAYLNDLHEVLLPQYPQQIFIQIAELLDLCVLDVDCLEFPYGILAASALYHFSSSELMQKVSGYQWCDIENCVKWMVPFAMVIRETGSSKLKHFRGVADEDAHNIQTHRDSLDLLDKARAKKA
Variant | normalised enrichment score
LPAKRKLDAEGIG [L9A] | 0.221
LPAKRKADLEGIG [L7A] | -0.312
LAAKRKLDLEGIG [P2A] | 0.589
LPAKRKLDFEGIG [L9F] | 5.59

Single results of other studies
Molecule | target | test | test system | conditions | how to read | quantity | value
PhoQ, residues 284 288 289 292 302 303 SACGEM | PhoP, residues 12 14 15 18 19 NNFVT (Escherichia coli, UniProt P23836) | Sort-seq, item: YFP reporter | E. coli | PhoQ-PhoP variant library, together with: 10 µM Mg2+ | baseline: high Mg2+ state, higher = stronger signaling | fold induction | 0.933

For quick reference, copied from above (block 1):
Variant | relative binding score [%]
V143N | -17.5
